Measurements collected from several papers.
Numbered parts are unrelated; each lists some results of a single study. Positions count from the first letter of the parent shown.

Study 1
Target: RING finger protein unkempt homolog, zinc fingers 1-6, GST-SBP tag (UNK, Homo sapiens, UniProt Q9C0B0, residues 30-357)
Technique: RNA Bind-n-Seq
Form: RNA
Matrix: in vitro
Concentration: not given
Setting: RNA with constant flanks, human-mouse chimeric sites, ends assumed
Reference: input RNA pool
Reading: higher = stronger binding
Residues (chain): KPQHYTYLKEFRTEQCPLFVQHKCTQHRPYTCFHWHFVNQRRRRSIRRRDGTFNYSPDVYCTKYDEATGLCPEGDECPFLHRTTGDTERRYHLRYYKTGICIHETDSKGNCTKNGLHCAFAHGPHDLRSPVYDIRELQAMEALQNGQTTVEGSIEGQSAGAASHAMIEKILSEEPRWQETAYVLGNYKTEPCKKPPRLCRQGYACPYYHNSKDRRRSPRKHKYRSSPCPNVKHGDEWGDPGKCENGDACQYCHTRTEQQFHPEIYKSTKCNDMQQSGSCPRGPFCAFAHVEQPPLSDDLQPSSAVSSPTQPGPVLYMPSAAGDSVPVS
For `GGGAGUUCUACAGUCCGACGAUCCCUCUGCUUCCGCACUCAGCCUGGGGACACUGGGCUGGGACCAGAAUCCAGCUUUCUUUUAAAACUCUCAGUGUAACUGUAUCCCGUGACAUUUCAUUUUUUUUAAAUAGUGUAUUUUUUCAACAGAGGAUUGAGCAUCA`, the bound/input enrichment was 3.44 ratio.
With `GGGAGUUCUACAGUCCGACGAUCAGGAGGAGAUUAAAGGGUGAAAAUGGGGUGGAAGACUGUGUCAUGGCUCUGGAGACACUGUUCAGUGUCCUGCUUUCUCUGUGCAGACUGAUGGCCCCUUACACGCCCUUUCUGACUGAGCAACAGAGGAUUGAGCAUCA` the bound/input enrichment was 0.0453 ratio.
`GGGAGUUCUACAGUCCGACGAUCAAAGAACUACUGAGGCAAGGCAGCAAAUUUAGAAGAAACAUUUCAACAAUAUUGAUAGAGUUAGGAUUCCAAAUUAAAAAAAAAACUAAGACAUUAUACAUCAACAAAGCCAAUGUGUGGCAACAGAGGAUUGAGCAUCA` has a bound/input enrichment of 27.3 ratio.
The bound/input enrichment of `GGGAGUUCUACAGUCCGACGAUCCUGGCACUCUAUCAGAUAUAUUAAUUUUUUAAUGUAGAUGUAAUUUUAAAAAUGAAUGGCUAGUUUACGUGAUAGAUUAGGGUUUUACUAUAUAUGUGUACAUAUGUAUAUAUAUAUAUACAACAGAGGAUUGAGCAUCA` is reported as 6.62 ratio.
For `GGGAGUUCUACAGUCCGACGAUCGGAAGUACAUUAAUGGAGAUUGAUGGUGACAAAGGCAAGCAGGGCGGGCCCACCUACUACAUAGACACCAAUGCCCUCCGCGUGCCCAGGGAGAAUAUGGAGGCCAUCUCACCACUCAAGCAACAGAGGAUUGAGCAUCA`, the bound/input enrichment was 0.241 ratio.
With `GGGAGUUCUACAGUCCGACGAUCGUACUGCAGCAGCAGGGAAAACUGCAGGAAGCUCUGAUGCAUUAUAAGGAGGCUAUUCGAAUCAGUCCUACAUUUGCUGAUGCUUAUUCUAAUAUGGGAAACACUCUAAAGGAGAUGCAGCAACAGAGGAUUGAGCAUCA` the bound/input enrichment was 0.182 ratio.
For `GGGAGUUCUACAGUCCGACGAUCCUCUUUGAAUCAUUCAAGAGUUUUGAAGGUCUCUUUUAUUUUCUGGGGUCCAUUGUUAACUUUAGCCAGGACCCAGAUGUGCACUUUAAAUAUAUUCAGGCGGCUUGCAAGACUGGGCAACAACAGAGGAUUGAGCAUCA`, the bound/input enrichment was 0.335 ratio.
`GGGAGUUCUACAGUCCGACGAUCGGAUUCCGCUUCCGGUUGGCCUCCAUCCGGUUCUCUCCUGAGCUACGUGUCUCUACGCUCUCAAUCCGCCAUCCAACAAACAUGGAUCAGGUAAUGCAGUUUGUGGAGCCCAGCCGGCAGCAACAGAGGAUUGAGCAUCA` gave a bound/input enrichment of 0.0968 ratio.
With `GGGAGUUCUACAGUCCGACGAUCAUCAAAUAUUUUGGGGACAUCAUUAGUGUGGGACAGAGACUGUUGCAAGGGGCCCGGAUCUUAGGGAUUCCAGUUAUCAUAACGGAACAAUACCCCAAAGGACUUGGCAGCACCGUUCAACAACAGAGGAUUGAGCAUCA` the bound/input enrichment was 0.257 ratio.
The bound/input enrichment of `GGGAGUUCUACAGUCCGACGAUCUUAAUCCCCUUCGUUGCUCCCCCACUUCUCAUGGUAAUAACAAAGUCUUAUAUCCCCGUCCUAGCUUUCACUCAGAUGGCUUAUGGAGCCAGUUUCCUAGCUUUCUUGGGAGGGAUCAGACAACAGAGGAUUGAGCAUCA` is reported as 0.346 ratio.
`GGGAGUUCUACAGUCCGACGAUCUCUUAACGUCCAUUUAAAACUUAUUUUUAUAGCUAGAUAAAUAUUGUUAGUCUUAGACAAUAGCUCACAUCUUUACAGAAGCAUGCCCUCCCUGUCCAUUUGUCUUAUAACAUGACCCAGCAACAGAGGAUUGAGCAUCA` has a bound/input enrichment of 38.2 ratio.

Study 2
Target: RNA binding protein fox-1 homolog 2, RRM domain, GST-SBP tag (RBFOX2, Homo sapiens, UniProt O43251-10, residues 100-194)
Technique: RNA Bind-n-Seq
Form: RNA
Matrix: in vitro
Concentration: 365 nM
Setting: natural RNA segment, single round, ends assumed
Reference: no-protein control
Reading: higher = stronger binding
Construct (chain): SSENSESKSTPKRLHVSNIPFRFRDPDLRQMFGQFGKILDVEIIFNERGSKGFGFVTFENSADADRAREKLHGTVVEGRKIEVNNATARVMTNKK
Under “RBNS enrichment (R)”, `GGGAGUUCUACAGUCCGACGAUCUUGUGGGUGGCGGGCGUUGGCAGAGAGCAGCAGGCACCUUAAUGCUGACUUGUCAGUAUCUCCAUCUCUAGUCACCUUUCUGGUGUCAGAAGAGAUGUGAUCUUCUACUGUGGAAUUCUCGGGUGCCAA` is recorded as 0.305.
For `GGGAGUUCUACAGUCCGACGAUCUCACUGUGACCUUGAGAAGAUUCUUCCCAUUCUCCAUUUGUUAUCUGGGAACUUAUUAAAUGGAAACUGAAACUACUGCACCAUUUAAAAACAGGCAGCUCAUAAGAGCCUGGAAUUCUCGGGUGCCAA`, “RBNS enrichment (R)” read 0.487.
`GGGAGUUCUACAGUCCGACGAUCUGGCAUUUUCCCCAGAAUUGUGAGCCAAAGCCUAUAGUAAUUGCAGACAGCAAAUGAUUCCGGAUCUCUAAAAGGCUCUCUCAGAUGAAAAGGGAGUAAAGGAAAAAAGAUGGAAUUCUCGGGUGCCAA`: “RBNS enrichment (R)” 0.419.
`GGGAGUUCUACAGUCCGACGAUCACACACAUAGAGGACUCUGGAGCCGCAGUGGGACAGCCCUGCCUGCUUGUUCUUCUGAACUUGGGGACCAUGCCUCUUUGGGCUCUGCUUCCAGGAUGGUUUGGGAAGCAUGGAAUUCUCGGGUGCCAA`: “RBNS enrichment (R)” 5.23.
`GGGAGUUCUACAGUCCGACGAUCACUAAACAAGGUUUUUAUGAAUAAUAGCAUUGAUAUAUAUAUAUUAUAUAUCACCCUUUAGAUCUUGAUUUCUUGGUCAUUUCUCAACCUGAGGUGCAUAGCAUAUUCCCUGGAAUUCUCGGGUGCCAA`: “RBNS enrichment (R)” 0.673.
`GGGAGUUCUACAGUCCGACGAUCGCCAUGCACCAGGACUGGCUGUGUAACCUUGGGUGGCCCCUGCUGUCUCUCUGGGCUGCAGAGUCUGCCCCACAUGUGGCCAUGGCCUCUGCAACUGCUCAGCUCUGGUCUGGAAUUCUCGGGUGCCAA`: “RBNS enrichment (R)” 0.316.
`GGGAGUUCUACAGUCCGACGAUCCUUAGAACUUUCCAAGCGCCAGUGCACAGCGUUCUAGGGAAUGGUGCUCCUUGGCUGGGUGAGCUGCCAGGCAAGUUUAAAUAUGCUGUGUGUGCCACAUUUUUAAAUUUUGGAAUUCUCGGGUGCCAA`: “RBNS enrichment (R)” 0.763.
`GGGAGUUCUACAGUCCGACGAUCGUCUGCCACAAAGAUGCCAUAUCAACUCCUCUCUUCCCAAAACUAAACAGGAUCUAUCAUGGUGGCACGGAGUCAGCUAGAUGUUGUCUCUUGCUAUCCCUGUGCUAGUUUGGAAUUCUCGGGUGCCAA`: “RBNS enrichment (R)” 0.421.
For `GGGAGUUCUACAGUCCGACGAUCUUUGUUUGUUUGUUUGUUUGUUUGUUUGUUUUUUCCAGACAGGAUUUCUCUGUGUAGCCCUGGCCGUCCUGGAACUCACUUUGUAGAUCAGGCUGGCCUCGAACUCAGAAUGGAAUUCUCGGGUGCCAA`, “RBNS enrichment (R)” read 31.9.
`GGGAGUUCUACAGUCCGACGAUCCUGUAAAAACAGUGCUCUCUGCUGCUAGGACCUUUUUUCUGCUUCCUGUCAUUUUCAUGUGGCUUGAGCUCUGAGACGUGCGGAUGAGGCUGGACAACUACUACCCAUACUGGAAUUCUCGGGUGCCAA` — result for “RBNS enrichment (R)”: 0.649.
`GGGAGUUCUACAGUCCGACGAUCUAUUCUAUUAGACUUCAUGCUGUAAAGAGAACAUGUUAUUUUGCCUCUAAACUUUGAUUUAUUGAAGUUUUAUUUGGCAAGAAAAAAGAAAUUGAAUCUUGAUCAAUAUUUGGAAUUCUCGGGUGCCAA` — result for “RBNS enrichment (R)”: 0.528.
`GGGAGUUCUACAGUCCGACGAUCGGGAGCUGUUCCGACCCCCGCUCCUGUGUAAGCAUUCAAUCAGUGUAACUUGCAAAAUGCAUAAACAUCCGACAGUUUGAAUUAAUAGUGUUGAUGGAAGAAAUCAUUUUUGGAAUUCUCGGGUGCCAA`: “RBNS enrichment (R)” 0.765.

Study 3
Target: Histone acetyltransferase KAT6A, both winged helices, GST fusion (KAT6A, Homo sapiens, UniProt Q92794, residues 1-181)
Technique: protein binding microarray
Form: double-stranded DNA, one strand shown
Matrix: in vitro
Concentration: not given
Setting: 8-mer, flanks averaged, mean of 2 arrays, mostly near background
Reference: not given
Reading: higher = stronger binding
Target sequence (chain): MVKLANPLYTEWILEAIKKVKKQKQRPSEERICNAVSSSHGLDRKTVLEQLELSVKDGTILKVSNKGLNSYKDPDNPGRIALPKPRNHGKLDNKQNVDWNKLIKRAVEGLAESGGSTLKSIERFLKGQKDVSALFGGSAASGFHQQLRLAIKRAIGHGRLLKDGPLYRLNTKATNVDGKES
`ACTACGCG` has an E-score of 0.26.
`TAGTAACA` has an E-score of -0.0937.
`GAAGATAC` gave an E-score of 0.109.
`TACCCGGA` has an E-score of 0.118.
For `GGGGAACA`, the E-score was -0.112.
`GACTCAAA` has an E-score of -0.152.
`ATAGTAGA` gave an E-score of -0.224.
For `ACAGCGGT`, the E-score was 0.199.
`CACGTGCC` gave an E-score of -0.114.
With `ACTCCCCC` the E-score was -0.133.
With `CCGGTCGC` the E-score was 0.265.
`AGAATCCC` has an E-score of -0.00784.
With `ATACAGAA` the E-score was -0.0464.
The E-score of `CGCACTGC` is reported as 0.222.
The E-score of `GTCTAACA` is reported as -0.0117.
`GCTAGTTA` has an E-score of 0.00404.

Study 4
Target: ABI1, truncated, D143A, DHFR fusion (Arabidopsis thaliana)
Technique: DHFR PCA, deep sequencing
Matrix: yeast
Setting: methotrexate growth selection, single substitutions
Added: (+)-ABA 0.39 µM
Reference: wild-type fitted maximum
Reading: higher = stronger binding
Starting sequence: PYL1, truncated, DHFR fusion (Arabidopsis thaliana); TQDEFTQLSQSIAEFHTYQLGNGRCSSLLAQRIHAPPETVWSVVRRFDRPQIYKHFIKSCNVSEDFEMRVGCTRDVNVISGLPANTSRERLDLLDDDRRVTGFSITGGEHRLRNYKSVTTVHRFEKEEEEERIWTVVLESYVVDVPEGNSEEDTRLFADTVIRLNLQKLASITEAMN; partner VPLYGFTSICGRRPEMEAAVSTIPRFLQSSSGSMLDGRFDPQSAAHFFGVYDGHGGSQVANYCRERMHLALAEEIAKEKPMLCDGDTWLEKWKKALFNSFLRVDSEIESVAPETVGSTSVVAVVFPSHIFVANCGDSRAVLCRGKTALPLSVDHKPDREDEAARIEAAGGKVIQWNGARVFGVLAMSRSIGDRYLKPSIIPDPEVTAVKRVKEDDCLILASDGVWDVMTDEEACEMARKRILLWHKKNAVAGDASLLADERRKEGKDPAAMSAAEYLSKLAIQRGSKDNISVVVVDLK
For `E130L`, “relative binding score” read 28.4%.
`Q31P`: “relative binding score” -8.92%.
For `E67V`, “relative binding score” read 52.7%.
For `H55E`, “relative binding score” read 36.1%.
Under “relative binding score”, `S11M` is recorded as 33.9%.
For `V43G`, “relative binding score” read -5.03%.
For `V142I`, “relative binding score” read 31.3%.
`D159M` — result for “relative binding score”: -16.5%.
For `S171A`, “relative binding score” read 54.8%.
For `C72R`, “relative binding score” read 1.86%.
`H122Y`: “relative binding score” 2.53%.
`P146I` — result for “relative binding score”: 17.8%.
For `I172K`, “relative binding score” read -15%.
`I12T` — result for “relative binding score”: 2.58%.
For `R113T`, “relative binding score” read 32.4%.
Under “relative binding score”, `D97N` is recorded as 46.8%.
`C72W` — result for “relative binding score”: 3.5%.
`E152V`: “relative binding score” 14.9%.
